# Experimental data gathered from unrelated publications.
# Lines come from different studies, so protocols differ. Numbers after ± are the reported error.
# Organism: Staphylococcus aureus
SMILES,test,test system,setting,how to read,quantity,value
NS(=O)(=O)c1ccc(-n2c(SCC(=O)Nc3ccc([N+](=O)[O-])cc3[N+](=O)[O-])nc3ccccc3c2=O)cc1,"microbial growth, well diffusion",MRSA,"500 µg/mL, 24 h",,inhibition zone,23 mm
CCCCCCCCCCCCCCCCCC(=O)N[C@@H](CCCCN)C(=O)N[C@@H](CCCCN)C(=O)N[C@@H](CCCCN)C(=O)N[C@@H](CCCCN)C(=O)N[C@@H](CCCCN)C(N)=O,crystal violet,JE2 (MRSA),2 x MIC,,biofilm inhibition,> 90%
O=C(CCc1ccc(O)c(O)c1)NCCCCCCCCCC[P+](c1ccccc1)(c1ccccc1)c1ccccc1,,XU212,"2 x MIC, 1 h",,K+ release,2.12 ± 0.55 µg/mL
Cc1cc([N+](=O)[O-])ccc1NC(=O)CSc1nc2ccccc2c(=O)n1-c1ccc(S(N)(=O)=O)cc1,microbial killing,MRSA,24 h,,MBC,9.01 µg/mL
CC(C)C[C@H](NC(=O)[C@H](CC(N)=O)NC(=O)[C@H](CCCNC(=N)N)NC(=O)[C@@H](CC(C)C)NC(=O)[C@H](Cc1ccc(-c2ccccc2)cc1)NC(=O)[C@H](CC(=O)O)NC(=O)[C@H](CCCCN)NC(=O)[C@@H](CC(C)C)NC(=O)[C@H](CCCNC(=N)N)NC(=O)[C@H](CCC(N)=O)NC(=O)[C@@H](NC(=O)[C@@H](CC(C)C)NC(=O)[C@H](CCCNC(=N)N)NC(=O)[C@H](CCCCN)NC(=O)[C@H](Cc1ccc(-c2ccccc2)cc1)NC(=O)CN)C(C)C)C(=O)N[C@H](C(N)=O)C(C)C,bacterial growth,USA300,"0.5 × MIC, 24 h",,lag time before regrowth,~3 h
CNC(CC(C)C)C(=O)NC1C(=O)NC(CC(N)=O)C(=O)NC2C(=O)NC3C(=O)NC(C(=O)NC(C(=O)O)c4cc(O)cc(O)c4-c4cc3ccc4O)C(O)c3ccc(c(Cl)c3)Oc3cc2cc(c3OC2OC(CO)C(O)C(O)C2OC2CC(C)(NC(=O)CCCCCCCCC[N+]3(C)CCOCC3)C(O)C(C)O2)Oc2ccc(cc2Cl)C1O (stereo not drawn),agar dilution,MRSA3,,"reference: vancomycin, higher = more active",MIC fold improvement,8 fold
CCCCCCCCCCCCCC(=O)N[C@@H](CCCNC(=N)N)C(=O)N[C@@H](CCCNC(=N)N)C(=O)N[C@@H](CCCNC(=N)N)C(N)=O,XTT,USA200,"6.25 µM, 24 h biofilm",,biofilm disruption,80%
CCCCCCCCCC(=O)N[C@@H](Cc1c[nH]c2ccccc12)C(=O)N[C@H](CC(N)=O)C(=O)N[C@@H](CC(=O)O)C(=O)N[C@@H]1C(=O)NCC(=O)N[C@@H](CCCN)C(=O)N[C@@H](CC(=O)O)C(=O)N[C@H](C)C(=O)N[C@@H](CC(=O)O)C(=O)NCC(=O)N[C@H](CO)C(=O)N[C@@H]([C@H](C)CC(=O)O)C(=O)N[C@@H](CC(=O)c2ccccc2N)C(=O)O[C@@H]1C,,"MRSA biofilm, porous glass beads",no gel,,MBEC,64 µg/mL
COC(=O)[C@H](Cc1cnc(C23CC4CC(CC(C4)C2)C3)[nH]1)NC(=O)[C@H](Cc1c[nH]c2ccccc12)NC(=O)[C@@H](N)Cc1cnc(C23CC4CC(CC(C4)C2)C3)[nH]1,,,,,IC50,8.76 µg/mL
CC(C)C[C@H](NC(=O)[C@H](CC(N)=O)NC(=O)[C@H](CCCNC(=N)N)NC(=O)[C@@H](CC(C)C)NC(=O)[C@H](Cc1ccc(-c2ccccc2)cc1)NC(=O)[C@H](CC(=O)O)NC(=O)[C@H](CCCCN)NC(=O)[C@@H](CC(C)C)NC(=O)[C@H](CCCNC(=N)N)NC(=O)[C@H](CCC(N)=O)NC(=O)[C@@H](NC(=O)[C@@H](CC(C)C)NC(=O)[C@H](CCCNC(=N)N)NC(=O)[C@H](CCCCN)NC(=O)[C@H](Cc1ccc(-c2ccccc2)cc1)NC(=O)CN)C(C)C)C(=O)N[C@H](C(N)=O)C(C)C,XTT,USA300,"24 h, 37 °C",,biofilm inhibitory concentration,6.25 µM
COc1ccccc1C(=O)Oc1cccccc1=O,time-kill,ATCC 29213,"16 x MIC80, 24 h",,reduction in viable count,2 log10 CFU
N=C(N)NCCC[C@H](NC(=O)[C@H](Cc1c[nH]c2ccccc12)NC(=O)[C@H](CCC(N)=O)NC(=O)[C@H](Cc1c[nH]c2ccccc12)NC(=O)[C@H](CCCNC(=N)N)NC(=O)[C@@H](N)CCCNC(=N)N)C(=O)NCCCC[C@H](NC(=O)[C@H](CCCNC(=N)N)NC(=O)[C@H](Cc1c[nH]c2ccccc12)NC(=O)[C@H](CCC(N)=O)NC(=O)[C@H](Cc1c[nH]c2ccccc12)NC(=O)[C@H](CCCNC(=N)N)NC(=O)[C@@H](N)CCCNC(=N)N)C(=O)NCCCCCC(=O)N[C@@H](CSSC[C@H](NC(=O)CCCCCNC(=O)[C@H](CCCCNC(=O)[C@H](CCCNC(=N)N)NC(=O)[C@H](Cc1c[nH]c2ccccc12)NC(=O)[C@H](CCC(N)=O)NC(=O)[C@H](Cc1c[nH]c2ccccc12)NC(=O)[C@H](CCCNC(=N)N)NC(=O)[C@@H](N)CCCNC(=N)N)NC(=O)[C@H](CCCNC(=N)N)NC(=O)[C@H](Cc1c[nH]c2ccccc12)NC(=O)[C@H](CCC(N)=O)NC(=O)[C@H](Cc1c[nH]c2ccccc12)NC(=O)[C@H](CCCNC(=N)N)NC(=O)[C@@H](N)CCCNC(=N)N)C(N)=O)C(N)=O,time-kill,ATCC 25923,88 µM,,time to bactericidal effect,48 h
CC(C)CNCc1cc(N(C)C)c2c(c1O)C(=O)C1=C(O)[C@]3(O)C(=O)C(C(N)=O)=C(O)[C@@H](N(C)C)[C@@H]3C[C@@H]1C2,,"MRSA 5 tetM, mouse thigh infection model","sc, 20 mg/kg, 24 h",reference: untreated control,log10 CFU change,3.11 log10
N=C(N)NCCC[C@@H]1NC(=O)[C@H](CCCNC(=N)N)NC(=O)[C@H](CCCNC(=N)N)NC(=O)[C@H](Cc2ccc3ccccc3c2)NC(=O)[C@H](Cc2c[nH]c3ccccc23)NC(=O)[C@H](Cc2ccc3ccccc3c2)NC(=O)[C@H](CCCNC(=N)N)NC1=O,bacterial killing,MRSA ATCC BAA-1556,MIC,,time to kill,3 to 4 h
CCCCCCCCCCCCCCCC(=O)N[C@@H](CCN)C(=O)N[C@H](C(=O)N[C@@H](CCN)C(=O)N[C@H]1CCNC(=O)[C@H]([C@@H](C)O)NC(=O)[C@H](CCN)NC(=O)[C@H](CCN)NC(=O)[C@H](CC(C)C)NC(=O)[C@@H](CC(C)C)NC(=O)[C@H](CCN)NC1=O)[C@@H](C)O,time-kill,MRSA,2 to 8 × MIC,,time to kill,≤ 1 h
CC[C@H](C)[C@H](NC(=O)[C@H](CCCN)NC(=O)[C@H](CC(N)=O)NC(=O)[C@H](Cc1c[nH]c2ccccc12)NC(=O)[C@H](Cc1ccccc1)NC(=O)[C@H](CCCN)NC(=O)[C@H](CCCNC(=N)N)NC(=O)[C@H](CC(C)C)NC(=O)[C@H](Cc1c[nH]c2ccccc12)NC(=O)[C@H](CCCN)NC(=O)[C@H](CCCNC(=N)N)NC(=O)[C@H](CC(C)C)NC(=O)CNC(C)=O)C(=O)N[C@@H](CCCN)C(=O)N[C@@H](CCCNC(=N)N)C(N)=O,,,"12 h, together with: plasma pretreatment",reference: MIC without plasma pretreatment,MIC fold increase,4 fold
COc1cc(NC(=O)CSc2nc3ccccc3c(=O)n2-c2ccc(S(N)(=O)=O)cc2)cc(OC)c1OC,"microbial growth, well diffusion",ATCC29213,"500 µg/mL, 24 h",,inhibition zone,16 mm
COc1ccc2c(oc3c4ccc(O)cc4oc(=O)c23)c1CC=C(C)C,,ATCC 25923,concentration not given,,antibacterial activity,inactive
Oc1ccccc1C1Nc2ccccc2C2=[O+][Cu-2]3([Cl])[O]c4ccccc4C=[N+]3N21 (stereo not drawn),"respiratory activity, inhibitor, MTT",ATCC 29213,concentration not given,at least 70% inhibition,lowest effective concentration,0.5 × MIC
CN[C@H](CC(C)C)C(=O)N[C@H]1C(=O)N[C@@H](CC(N)=O)C(=O)N[C@H]2C(=O)N[C@H]3C(=O)N[C@H](C(=O)N[C@H](C(=O)O)c4cc(O)cc(O)c4-c4cc3ccc4O)[C@H](O)c3ccc(c(Cl)c3)Oc3cc2cc(c3O[C@@H]2O[C@H](CO)[C@@H](O)[C@H](O)[C@H]2O[C@H]2C[C@](C)(N)[C@H](O)[C@H](C)O2)Oc2ccc(cc2Cl)[C@H]1O,Calgary Biofilm Device,MRSA 1707,biofilm,,MBEC,> 2000 µM
O=[N+]([O-])c1ccc2c(c1)C=[N+]1N3C(=[O+][Cu-2]1([Cl])[O]2)c1ccccc1NC3c1cc([N+](=O)[O-])ccc1O (stereo not drawn),"respiratory activity, inhibitor, MTT",ATCC 29213,concentration not given,at least 70% inhibition,lowest effective concentration,0.5 × MIC
CNC(CC(C)C)C(=O)NC1C(=O)NC(CC(N)=O)C(=O)NC2C(=O)NC3C(=O)NC(C(=O)NC(C(=O)O)c4cc(O)cc(O)c4-c4cc3ccc4O)C(O)c3ccc(c(Cl)c3)Oc3cc2cc(c3OC2OC(CO)C(O)C(O)C2OC2CC(C)(NC(=O)CCCC[N+](C)(C)Cc3ccccc3)C(O)C(C)O2)Oc2ccc(cc2Cl)C1O (stereo not drawn),agar dilution,MRSA5,,"reference: vancomycin, higher = more active",MIC fold improvement,8 fold
CC(=O)[O-].O.O.O.O.[Co+2].[O-]c1ccc(Br)cc1C=NCCN1CCOCC1,,,20 µL of 100 µM per disc,,inhibition zone diameter,15 mm
CC(C)C[C@H](NC(=O)[C@H](CCCCN)NC(=O)[C@H](CCCNC(=N)N)NC(=O)[C@@H](CC(C)C)NC(=O)[C@H](Cc1c[nH]c2ccccc12)NC(=O)[C@H](CC(=O)O)NC(=O)[C@H](CCCCN)NC(=O)[C@@H](CC(C)C)NC(=O)[C@H](CCCNC(=N)N)NC(=O)[C@H](CCC(N)=O)NC(=O)[C@@H](NC(=O)[C@@H](CC(C)C)NC(=O)[C@H](CCCNC(=N)N)NC(=O)[C@H](CCCCN)NC(=O)[C@H](Cc1ccc(C(C)(C)C)cc1)NC(=O)CN)C(C)C)C(=O)N[C@H](C(N)=O)C(C)C,"biofilm disruption, XTT",USA300,"24 h, 24 h preformed biofilm, TSB",,minimum antibiofilm concentration,3.1 µM
O=C(CCc1cc(O)c(O)c(O)c1)NCCCCCCCCCC[P+](c1ccccc1)(c1ccccc1)c1ccccc1,,XU212,"half MIC, 1 h",,K+ release,1.8 ± 0.21 µg/mL
CCCCCCCCCCCCCC(=O)N[C@@H](CCCCN)C(=O)N[C@@H](CCCCN)C(N)=O,XTT,UAMS-1,6.25 µM,,biofilm disruption,93%
CCCCCCCCCC1CC2CCCC3CC(CCCCCCCCC)NC(=N1)N23 (stereo not drawn),bacterial growth,MRSA ATCC 33591,,,IC50,3.1 µM
CCCCCCCCCCCC1N=C(N)N=C(N)N1c1ccc(Cl)cc1.Cl (racemic),broth microdilution,ATCC 11632,together with: 7.4 mg/mL thymidine,,MIC90,2 µM
CN[C@H](CC(C)C)C(=O)N[C@H]1C(=O)N[C@@H](CC(N)=O)C(=O)N[C@H]2C(=O)N[C@H]3C(=O)N[C@H](C(=O)N[C@H](C(=O)O)c4cc(O)cc(O)c4-c4cc3ccc4O)[C@H](O)c3ccc(c(Cl)c3)Oc3cc2cc(c3O[C@@H]2O[C@H](CO)[C@@H](O)[C@H](O)[C@H]2O[C@H]2C[C@](C)(NCc3ccc(C(=O)OCCCCCCN(Cc4ccccn4)Cc4ccccn4)cc3)[C@H](O)[C@H](C)O2)Oc2ccc(cc2Cl)[C@H]1O,mature biofilm,ATCC 33591 MRSA,"20 µM, 24 h",reference: untreated,viable count reduction,2 log CFU/mL
CCN(CC)CCn1nc(C23CC4CC(CC(C4)C2)C3)n(C)c1=S,,IFO 3060,"200 µg/disc, 24 h, 37 °C",,inhibition zone diameter,19 mm
COc1c2c(cc3oc(=O)cc(C)c13)C(=O)c1cc(C)cc(O)c1C2=O,,MTCC 96,100 µg/disc,,zone of inhibition,< 8 mm
FC(F)(F)c1cc(CSc2nnc(C34CC5CC(CC(C5)C3)C4)n2-c2ccccc2)cc(C(F)(F)F)c1,,IFO 3060,"200 µg/disc, 24 h, 37 °C",,inhibition zone diameter,29 mm
CC(=NNC(=N)N)c1nnn(-c2ccc(C#CC3(O)CCCCC3)cc2)c1C,crystal violet,ATCC 43300 MRSA,MIC,,biofilm inhibition,79.39 ± 0.37%

# For quick reference, copied from above:
SMILES,test,test system,setting,how to read,quantity,value
CN[C@H](CC(C)C)C(=O)N[C@H]1C(=O)N[C@@H](CC(N)=O)C(=O)N[C@H]2C(=O)N[C@H]3C(=O)N[C@H](C(=O)N[C@H](C(=O)O)c4cc(O)cc(O)c4-c4cc3ccc4O)[C@H](O)c3ccc(c(Cl)c3)Oc3cc2cc(c3O[C@@H]2O[C@H](CO)[C@@H](O)[C@H](O)[C@H]2O[C@H]2C[C@](C)(NCc3ccc(C(=O)OCCCCCCN(Cc4ccccn4)Cc4ccccn4)cc3)[C@H](O)[C@H](C)O2)Oc2ccc(cc2Cl)[C@H]1O,mature biofilm,ATCC 33591 MRSA,"20 µM, 24 h",reference: untreated,viable count reduction,2 log CFU/mL
CCCCCCCCCCCCCC(=O)N[C@@H](CCCNC(=N)N)C(=O)N[C@@H](CCCNC(=N)N)C(=O)N[C@@H](CCCNC(=N)N)C(N)=O,XTT,USA200,"6.25 µM, 24 h biofilm",,biofilm disruption,80%
CCCCCCCCCCCCCC(=O)N[C@@H](CCCCN)C(=O)N[C@@H](CCCCN)C(N)=O,XTT,UAMS-1,6.25 µM,,biofilm disruption,93%
CNC(CC(C)C)C(=O)NC1C(=O)NC(CC(N)=O)C(=O)NC2C(=O)NC3C(=O)NC(C(=O)NC(C(=O)O)c4cc(O)cc(O)c4-c4cc3ccc4O)C(O)c3ccc(c(Cl)c3)Oc3cc2cc(c3OC2OC(CO)C(O)C(O)C2OC2CC(C)(NC(=O)CCCCCCCCC[N+]3(C)CCOCC3)C(O)C(C)O2)Oc2ccc(cc2Cl)C1O (stereo not drawn),agar dilution,MRSA3,,"reference: vancomycin, higher = more active",MIC fold improvement,8 fold
